Assay results gathered from unrelated publications.
Parts stem from different laboratories: compare values within a part only. Changes are numbered by the printed parent chain.

Series 1
Target: Histone acetyltransferase KAT6A, winged helix 2, GST fusion (KAT6A, Homo sapiens, UniProt Q92794, residues 85-181)
Technique: protein binding microarray
Molecule type: double-stranded DNA, one strand shown
Medium: in vitro
Concentration: not given
Setting: 8-mer, flanks averaged, mean of 2 arrays, mostly near background
Relative to: not given
Direction: higher = stronger binding
Residues (chain): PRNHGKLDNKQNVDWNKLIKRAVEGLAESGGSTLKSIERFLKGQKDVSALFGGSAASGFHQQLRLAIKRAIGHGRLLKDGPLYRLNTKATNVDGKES
`CATCCCTA` gave an E-score of -0.156.
For `CGACACCA`, the E-score was -0.135.
`AGCAAGGA` has an E-score of -0.0101.
With `GAGCTCCC` the E-score was -0.0435.
For `AATGATCC`, the E-score was -0.0688.
`AACTCATA` has an E-score of -0.0677.
`ACTGCCGA` gave an E-score of 0.163.
`AGACGTTA` gave an E-score of -0.251.
For `AACTTAAC`, the E-score was 0.118.
For `AATTTGCG`, the E-score was 0.0418.
For `ATTGATGG`, the E-score was -0.0435.
With `AATAGAAG` the E-score was -0.189.
`GAAATCAA` has an E-score of 0.0523.
For `ATCAGTCC`, the E-score was -0.329.
With `GTGTGTGA` the E-score was 0.0438.
The E-score of `CCCGCCGA` is reported as 0.207.
The E-score of `AAGTACTG` is reported as -0.106.

Series 2
Target: CCNB3, cyclin fold, Cln2 fusion (human)
Technique: yeast growth competition, sequencing
Medium: yeast
Setting: weak parent motif
Relative to: not given
Direction: higher = stronger binding
Parent: GMNC docking peptide (human); KNAKRNLSSEFAN; partner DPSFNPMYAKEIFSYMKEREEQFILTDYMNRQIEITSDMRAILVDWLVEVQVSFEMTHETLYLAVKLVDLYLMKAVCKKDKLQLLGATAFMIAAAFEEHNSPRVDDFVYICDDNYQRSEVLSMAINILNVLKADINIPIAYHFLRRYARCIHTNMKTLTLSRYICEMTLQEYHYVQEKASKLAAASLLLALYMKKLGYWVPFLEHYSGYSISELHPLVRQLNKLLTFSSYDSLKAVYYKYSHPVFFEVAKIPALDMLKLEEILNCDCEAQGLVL
`N2D` — result for “normalised enrichment score”: 0.397.
Under “normalised enrichment score”, `S8A` is recorded as 0.0775.
`N6Q`: “normalised enrichment score” 0.309.
Under “normalised enrichment score”, `L7I` is recorded as 0.0613.
`E10Y` — result for “normalised enrichment score”: -0.342.
Under “normalised enrichment score”, `E10A` is recorded as 0.0393.
Under “normalised enrichment score”, `S8G` is recorded as 0.265.
`R5A` — result for “normalised enrichment score”: 0.108.
For `N2R`, “normalised enrichment score” read 0.646.
For `L7R`, “normalised enrichment score” read -0.0122.
`F11T`: “normalised enrichment score” 0.309.
`R5G` — result for “normalised enrichment score”: 0.138.
For `R5D`, “normalised enrichment score” read -0.062.
Under “normalised enrichment score”, `A3N` is recorded as 0.205.
`S8K`: “normalised enrichment score” 0.416.
For `N6H`, “normalised enrichment score” read -0.00605.
Under “normalised enrichment score”, `A3L` is recorded as 0.162.

Series 3
Target: PABPC1L2, full length, GST fusion (mouse, UniProt A0ABA7IW68)
Technique: RNAcompete
Molecule type: RNA
Medium: in vitro
Concentration: 20 nM
Setting: 7-mer, probes averaged, single round
Relative to: mean of 7-mers
Direction: higher = stronger binding
Construct (chain): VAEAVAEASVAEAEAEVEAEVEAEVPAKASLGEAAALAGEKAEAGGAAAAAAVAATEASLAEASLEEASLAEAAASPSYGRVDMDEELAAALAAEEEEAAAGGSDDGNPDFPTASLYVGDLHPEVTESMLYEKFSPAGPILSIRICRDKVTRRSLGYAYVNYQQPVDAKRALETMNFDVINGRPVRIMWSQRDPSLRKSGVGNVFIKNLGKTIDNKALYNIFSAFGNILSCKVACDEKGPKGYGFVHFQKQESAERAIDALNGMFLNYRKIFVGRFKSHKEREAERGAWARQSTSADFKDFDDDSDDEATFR
For `CGCGUCA`, the 7-mer Z-score was -0.139.
For `GCGAAGA`, the 7-mer Z-score was 0.131.
For `AGUAUCG`, the 7-mer Z-score was -0.101.
For `CUGACAU`, the 7-mer Z-score was -0.179.
`CCUUCGC` gave a 7-mer Z-score of -0.423.
`UAUUGAG` has a 7-mer Z-score of -0.012.
For `CCAGUGA`, the 7-mer Z-score was -0.115.
`GAAUCAA` gave a 7-mer Z-score of 0.191.
`UGUUUUA` gave a 7-mer Z-score of -0.354.
For `UGCCCUC`, the 7-mer Z-score was -0.324.
The 7-mer Z-score of `UAACACC` is reported as -0.0935.
`AGGUGGC` gave a 7-mer Z-score of 0.227.
With `UUUGAGU` the 7-mer Z-score was -0.3.
For `UCUCGGC`, the 7-mer Z-score was -0.206.

Other studies, line by line
`PhoQ, residues 284 288 289 292 302 303 TTSMTC` has a fold induction of 3.39 (PhoP, residues 12 14 15 18 19 AQCLL (Escherichia coli, UniProt P23836); Sort-seq, refers to: YFP reporter; E. coli; PhoQ-PhoP variant library, added: 10 µM Mg2+; relative to: high Mg2+ state, higher = stronger signaling).

A few entries again (series 1):
`GAAATCAA` has an E-score of 0.0523.
For `ATCAGTCC`, the E-score was -0.329.
With `GTGTGTGA` the E-score was 0.0438.
The E-score of `CCCGCCGA` is reported as 0.207.
